Results gathered from unrelated publications.
Each numbered part is a random draw from the data of one study; scales do not carry over between parts. Substitutions count along the parent as printed.

Series 1
Target: Prothrombin, mature alpha-thrombin (F2, Homo sapiens, UniProt P00734)
Technique: aptamer microarray, sandwich
Molecule type: DNA with 2'F-ANA
Sample: in vitro
Tested at: 200 nM
Notes: whole 15-mer aptamer, many near background
Added: Cy3 exosite-II aptamer, 400 nM
Direction: higher = stronger binding
Oligonucleotide: GGTTGGTGTGGTTGG
Modification | mean fluorescence intensity
2'F-ANA at 2 4 6 7 8 10 11 13 15 | 64.3 a.u.
2'F-ANA at 1 4 7 8 10 15 | 56.3 a.u.
2'F-ANA at 3 4 5 6 7 12 13 15 | 121 a.u.
2'F-ANA at 3 5 7 8 10 11 12 14 | 54.1 a.u.
2'F-ANA at 1 6 7 8 9 12 14 | 78.3 a.u.
2'F-ANA at 2 6 8 9 10 | 109 a.u.
2'F-ANA at 1 2 7 8 10 12 14 | 46.4 a.u.
2'F-ANA at 1 3 8 9 10 11 12 14 15 | 62.9 a.u.
2'F-ANA at 1 2 4 7 8 9 11 12 13 14 | 59.1 a.u.
2'F-ANA at 1 2 4 5 6 10 11 12 13 | 82.4 a.u.
2'F-ANA at 1 3 4 7 8 9 10 | 68.9 a.u.
2'F-ANA at 1 4 5 6 8 10 11 12 13 14 15 | 50.6 a.u.
2'F-ANA at 1 2 3 5 8 9 13 14 15 | 47.7 a.u.
2'F-ANA at 3 5 6 7 8 12 14 15 | 58.2 a.u.
2'F-ANA at 1 2 3 5 7 9 13 | 52.1 a.u.
2'F-ANA at 1 2 3 5 6 7 8 9 11 13 | 56.4 a.u.
2'F-ANA at 1 5 8 10 | 43.8 a.u.
2'F-ANA at 1 3 7 9 10 11 14 15 | 59.4 a.u.
2'F-ANA at 2 5 7 8 13 15 | 59.8 a.u.
2'F-ANA at 1 2 4 5 9 12 13 14 | 47.7 a.u.
2'F-ANA at 2 4 5 9 10 14 | 53.3 a.u.
2'F-ANA at 2 3 5 7 9 11 12 13 14 | 55.1 a.u.
2'F-ANA at 2 4 7 8 9 10 13 14 15 | 70.3 a.u.

Series 2
Target: RNA binding protein fox-1 homolog 2, RRM domain, GST-SBP tag (RBFOX2, Homo sapiens, UniProt O43251-10, residues 100-194)
Technique: RNA Bind-n-Seq
Molecule type: RNA
Sample: in vitro
Tested at: 365 nM
Notes: natural RNA segment, single round, ends assumed
Relative to: no-protein control
Direction: higher = stronger binding
All sequences stand within: GGGAGUUCUACAGUCCGACGAUC … UGGAAUUCUCGGGUGCCAA
Oligonucleotide | RBNS enrichment (R)
GAUAGCUGUCUGCUCCAGUUUCUGGUCUUUGGUAUACUCAGUGUGGCCCGGUGAUGAAGGCUUUCUACUCCUUAACAGGUACAGUUGGAUCCAUCGCUGAUGGUGUUUCU | 0.511
UUUGUACAUUGCUUUCCCUGCCUUCUUUUUUCACGUCUGUUUUGGUGUUUGAUCCCUGCCCAGUGUUGUCGCACAGGGGAAGGGCAGAUACCAAGACCUGUCUGUUGGAU | 0.392
GGCAAGGAGAGGCGUGGACACCGGCCACAGGUGUGCCCGAGCCCCAUCCUACCUGAGUCUCUGUCUCCCUCUCUGGAUAUGUGCGUCCCCACUCCCACCAGCCUACCACC | 0.405
AGGCUGUGCCUGCCCUGCCAGUGCAGGGAGCUGUCCCGCACUUGAGCAGUGUCAGAGAUUCUUGCUUUAACUUUGAUUUGCUUUCUCCCAUUCUUGGCCCUGGUCACUAG | 0.399
GUAAAUUCACAGCAGUAAGAUAAUAUAAAUUUUGUUGAAUGUAUUAACAUCAUAUGGUCUGAAAAUGUGGGUUUUUAUUUGGCACAUUUAAAUAAAAUGUUUCUAACUAG | 0.744
GUGAAGCUGCUCAUCGAGAUGGAGCAGCGGCUGGAGCAGGGCCAGGCCAUCGACGACCUCAUGCCUGCCCAGAAAUGAAGCCCGGCCCACACCCGACACCAGCCCUGCUG | 0.704
ACGGAGGCAGAGAAAAGAGAAAGUGUUUUAUAUACGGUACUUAUUUAAUAGCCCUUUUUAAUUAGAAAUUAAAACAGUUAAUUUAAUUAAAGAGUAGGGUUUUUUUCAGU | 0.525
UGGUGGUGGGAGCUUACCGCCACCUAUUCAAGCUCUCAGCUACUCCUGAAACGGGCAGAGAUGAUGAACAGAAGUGUAUGUAAAUACAGCAGCUAGUGGGAGAGCACCAG | 0.539

Series 3
Target: ABI1, truncated, D143A, DHFR fusion (Arabidopsis thaliana)
Technique: DHFR PCA, deep sequencing
Sample: yeast
Notes: methotrexate growth selection, single substitutions
Added: (+)-ABA 58 µM
Relative to: wild-type fitted maximum
Direction: higher = stronger binding
Starting sequence: PYL1, truncated, DHFR fusion (Arabidopsis thaliana); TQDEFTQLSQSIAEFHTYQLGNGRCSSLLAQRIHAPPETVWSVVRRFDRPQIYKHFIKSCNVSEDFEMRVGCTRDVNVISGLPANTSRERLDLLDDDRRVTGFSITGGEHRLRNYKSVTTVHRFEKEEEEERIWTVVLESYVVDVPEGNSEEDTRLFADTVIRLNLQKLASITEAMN
Substitution | relative binding score
E4P | 82.1%
R88H | 90.5%
V142G | 50.6%
R113C | 88.3%
N114Y | 18.3%
T39A | 89.6%
Y115Q | -24.7%
E38V | 41.3%
A158Y | 3.84%
V44L | 79.6%
T119F | 13.8%
D96W | 10.3%
Q7I | 72%
K58H | 77.7%
A170Y | -1.77%
P83G | 47.3%

Series 4
Target: CCNB3, cyclin fold, Cln2 fusion (human)
Technique: yeast growth competition, sequencing
Sample: yeast
Notes: weak parent motif
Relative to: not given
Direction: higher = stronger binding
Starting sequence: CDC6 docking peptide (human); TLKGRRLVFDNQL
Substitution | normalised enrichment score
TLRGRRLVFDNQL [K3R] | 0.303
TKKGRRLVFDNQL [L2K] | 0.214
TLKGRRLVFDNDL [Q12D] | 0.201
TLKGRRLVFINQL [D10I] | 0.711
VLKGRRLVFDNQL [T1V] | 0.433
TLKGRRLVTDNQL [F9T] | 0.153
QLKGRRLVFDNQL [T1Q] | -0.17
TLMGRRLVFDNQL [K3M] | 0.239
TCKGRRLVFDNQL [L2C] | 0.102
ILKGRRLVFDNQL [T1I] | 0.186
TLKGRRLVFDNQV [L13V] | 0.198
TLKGRRNVFDNQL [L7N] | -0.12
TLHGRRLVFDNQL [K3H] | 0.00536
TLKGIRLVFDNQL [R5I] | -0.244
TLKGRRLVFDNEL [Q12E] | -0.0146
TDKGRRLVFDNQL [L2D] | 0.0117
TLKGFRLVFDNQL [R5F] | 0.0737
THKGRRLVFDNQL [L2H] | -0.244
TLKGRRLVMDNQL [F9M] | 0.238
TLKQRRLVFDNQL [G4Q] | 0.369
TLKGRYLVFDNQL [R6Y] | 0.255
TLKGRRLVFDGQL [N11G] | 0.507
TLKGRRLVFYNQL [D10Y] | 0.217
TLKGRTLVFDNQL [R6T] | 0.454
TLKGPRLVFDNQL [R5P] | 0.086

Some of these lines once more (series 4):
Substitution | normalised enrichment score
TLKGPRLVFDNQL [R5P] | 0.086
TLRGRRLVFDNQL [K3R] | 0.303
TLKGRRLVFDGQL [N11G] | 0.507
TLKGIRLVFDNQL [R5I] | -0.244
QLKGRRLVFDNQL [T1Q] | -0.17
THKGRRLVFDNQL [L2H] | -0.244
ILKGRRLVFDNQL [T1I] | 0.186
TLKGRRLVFINQL [D10I] | 0.711
TLKGRYLVFDNQL [R6Y] | 0.255
TLMGRRLVFDNQL [K3M] | 0.239
TLKQRRLVFDNQL [G4Q] | 0.369
